Published values gathered from unrelated publications.
Parts stem from different laboratories: compare values within a part only.
Sequence of UniProt O94804 (whole entry, looked up): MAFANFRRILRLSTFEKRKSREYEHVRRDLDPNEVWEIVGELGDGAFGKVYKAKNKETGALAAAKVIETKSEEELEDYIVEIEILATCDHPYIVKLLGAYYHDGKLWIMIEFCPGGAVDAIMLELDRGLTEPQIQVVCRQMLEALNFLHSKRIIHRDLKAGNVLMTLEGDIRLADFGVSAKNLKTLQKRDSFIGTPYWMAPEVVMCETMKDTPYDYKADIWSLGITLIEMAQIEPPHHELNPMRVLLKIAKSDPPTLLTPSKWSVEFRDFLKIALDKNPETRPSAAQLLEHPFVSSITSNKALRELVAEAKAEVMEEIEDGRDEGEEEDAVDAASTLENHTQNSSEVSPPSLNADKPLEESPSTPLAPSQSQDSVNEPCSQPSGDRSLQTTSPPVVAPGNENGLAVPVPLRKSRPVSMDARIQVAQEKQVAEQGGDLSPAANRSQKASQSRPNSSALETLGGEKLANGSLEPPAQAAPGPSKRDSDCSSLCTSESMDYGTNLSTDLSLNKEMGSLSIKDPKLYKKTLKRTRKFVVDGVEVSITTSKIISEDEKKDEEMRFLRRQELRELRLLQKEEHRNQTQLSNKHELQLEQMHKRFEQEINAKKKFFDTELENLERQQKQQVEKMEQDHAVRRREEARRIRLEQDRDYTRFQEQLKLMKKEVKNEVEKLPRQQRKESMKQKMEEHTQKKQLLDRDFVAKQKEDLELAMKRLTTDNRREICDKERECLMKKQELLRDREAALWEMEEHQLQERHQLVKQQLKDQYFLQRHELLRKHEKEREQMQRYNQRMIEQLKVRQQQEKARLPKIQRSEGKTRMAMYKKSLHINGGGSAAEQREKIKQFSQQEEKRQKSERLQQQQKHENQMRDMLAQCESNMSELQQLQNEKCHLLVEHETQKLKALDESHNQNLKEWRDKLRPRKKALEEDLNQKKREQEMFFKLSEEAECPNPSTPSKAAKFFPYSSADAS
Sequence of UniProt O75582 (whole entry, looked up): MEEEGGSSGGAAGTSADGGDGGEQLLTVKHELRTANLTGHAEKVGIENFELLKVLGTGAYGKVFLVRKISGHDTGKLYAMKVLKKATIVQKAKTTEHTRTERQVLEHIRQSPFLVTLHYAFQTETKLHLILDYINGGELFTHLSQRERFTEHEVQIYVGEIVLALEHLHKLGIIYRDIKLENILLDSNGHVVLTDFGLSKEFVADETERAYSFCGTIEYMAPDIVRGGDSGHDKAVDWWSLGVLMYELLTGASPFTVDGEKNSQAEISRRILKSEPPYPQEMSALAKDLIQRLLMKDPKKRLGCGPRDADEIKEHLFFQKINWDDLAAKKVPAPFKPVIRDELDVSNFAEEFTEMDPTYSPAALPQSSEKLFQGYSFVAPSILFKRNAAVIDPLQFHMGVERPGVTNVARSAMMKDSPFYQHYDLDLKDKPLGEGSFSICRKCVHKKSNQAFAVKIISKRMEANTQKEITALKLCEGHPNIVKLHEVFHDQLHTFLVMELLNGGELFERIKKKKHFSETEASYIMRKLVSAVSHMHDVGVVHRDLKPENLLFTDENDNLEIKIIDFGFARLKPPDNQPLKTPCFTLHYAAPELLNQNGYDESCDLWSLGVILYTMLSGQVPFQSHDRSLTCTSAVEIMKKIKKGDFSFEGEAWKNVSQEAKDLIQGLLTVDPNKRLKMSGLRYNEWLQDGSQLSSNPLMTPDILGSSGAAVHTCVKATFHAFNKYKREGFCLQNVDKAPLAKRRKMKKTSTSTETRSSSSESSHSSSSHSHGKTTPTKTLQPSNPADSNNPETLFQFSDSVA
Sequence of UniProt Q00535 (whole entry, looked up): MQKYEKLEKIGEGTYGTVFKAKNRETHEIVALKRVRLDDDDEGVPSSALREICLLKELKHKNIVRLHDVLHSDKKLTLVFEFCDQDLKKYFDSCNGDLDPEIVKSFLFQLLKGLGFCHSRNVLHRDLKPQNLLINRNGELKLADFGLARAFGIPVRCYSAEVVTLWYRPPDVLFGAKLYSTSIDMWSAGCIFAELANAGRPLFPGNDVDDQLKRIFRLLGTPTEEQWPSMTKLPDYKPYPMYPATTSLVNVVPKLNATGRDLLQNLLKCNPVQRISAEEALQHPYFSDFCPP
Sequence of UniProt Q9Y2H9 (whole entry, looked up): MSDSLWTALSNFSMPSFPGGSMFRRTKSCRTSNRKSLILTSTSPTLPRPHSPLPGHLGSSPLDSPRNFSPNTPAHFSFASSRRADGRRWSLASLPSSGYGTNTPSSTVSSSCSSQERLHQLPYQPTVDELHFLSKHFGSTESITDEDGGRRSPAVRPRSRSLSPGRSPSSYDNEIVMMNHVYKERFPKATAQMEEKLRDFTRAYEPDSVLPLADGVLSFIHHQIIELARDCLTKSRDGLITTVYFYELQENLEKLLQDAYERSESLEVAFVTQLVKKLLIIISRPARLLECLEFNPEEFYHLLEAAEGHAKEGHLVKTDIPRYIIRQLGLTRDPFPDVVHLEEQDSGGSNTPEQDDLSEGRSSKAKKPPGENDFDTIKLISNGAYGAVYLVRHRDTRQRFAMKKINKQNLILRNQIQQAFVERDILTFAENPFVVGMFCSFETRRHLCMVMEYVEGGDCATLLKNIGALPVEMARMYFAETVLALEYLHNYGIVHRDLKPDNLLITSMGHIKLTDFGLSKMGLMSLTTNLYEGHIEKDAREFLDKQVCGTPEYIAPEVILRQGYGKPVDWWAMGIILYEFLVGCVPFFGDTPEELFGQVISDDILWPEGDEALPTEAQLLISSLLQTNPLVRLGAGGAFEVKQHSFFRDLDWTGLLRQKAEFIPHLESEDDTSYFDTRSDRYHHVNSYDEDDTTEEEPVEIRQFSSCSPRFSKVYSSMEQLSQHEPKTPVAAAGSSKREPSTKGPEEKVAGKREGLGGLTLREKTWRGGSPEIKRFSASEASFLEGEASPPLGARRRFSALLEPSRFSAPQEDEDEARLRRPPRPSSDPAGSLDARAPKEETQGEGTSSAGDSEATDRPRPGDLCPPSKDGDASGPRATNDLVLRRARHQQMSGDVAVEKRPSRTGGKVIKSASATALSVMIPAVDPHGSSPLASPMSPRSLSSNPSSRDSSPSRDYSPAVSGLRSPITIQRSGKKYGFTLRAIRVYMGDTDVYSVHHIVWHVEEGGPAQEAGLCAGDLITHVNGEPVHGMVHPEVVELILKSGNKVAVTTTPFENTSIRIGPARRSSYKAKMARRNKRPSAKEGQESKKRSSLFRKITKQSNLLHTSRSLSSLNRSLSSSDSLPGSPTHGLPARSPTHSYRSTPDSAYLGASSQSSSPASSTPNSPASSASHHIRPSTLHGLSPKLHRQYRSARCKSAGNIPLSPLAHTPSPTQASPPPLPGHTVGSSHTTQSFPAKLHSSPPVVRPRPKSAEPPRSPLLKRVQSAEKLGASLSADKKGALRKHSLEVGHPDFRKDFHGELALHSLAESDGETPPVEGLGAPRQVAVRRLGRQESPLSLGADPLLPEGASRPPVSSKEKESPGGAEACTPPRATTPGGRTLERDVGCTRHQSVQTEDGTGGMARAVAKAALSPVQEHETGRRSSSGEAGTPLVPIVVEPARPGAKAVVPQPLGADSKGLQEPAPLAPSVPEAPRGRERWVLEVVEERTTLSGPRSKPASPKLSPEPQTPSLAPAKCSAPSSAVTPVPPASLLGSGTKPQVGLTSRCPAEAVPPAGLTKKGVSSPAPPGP

Series 1
Cell line: 1205Lu melanoma
Structure (SMILES)	IC50 [µM]
CN(C)CCC=C1c2ccccc2CCc2ccccc21	36.3
O=C1NCCN1CCN1CCC(c2cn(-c3ccc(F)cc3)c3ccc(Cl)cc23)CC1	2
c1cc(CN2CCCCC2)cc(OCCCNc2nc3ccccc3s2)c1	28
CCCCCCCCNC(C)C(O)c1ccc(SC(C)C)cc1 (stereo not drawn)	5.3
OC1(c2ccc(Cl)c(C(F)(F)F)c2)CCN(CCCC(c2ccc(F)cc2)c2ccc(F)cc2)CC1	5.2
Fc1ccc([C@@H]2CCNC[C@H]2COc2ccc3c(c2)OCO3)cc1	8
CC(C)(C)c1ccc(C(O)CCCN2CCC(C(O)(c3ccccc3)c3ccccc3)CC2)cc1 (stereo not drawn)	3.9
CNCCCN1c2ccccc2CCc2ccccc21	16.8
CN(C)CCCN1c2ccccc2Sc2ccc(C(F)(F)F)cc21	12.2
CCOC(=O)C1=C(COCCN)NC(C)=C(C(=O)OC)C1c1ccccc1Cl (stereo not drawn)	12.8
CN(C)CCCN1c2ccccc2Sc2ccccc21	36.6
CN1CCN(CCCN2c3ccccc3Sc3ccc(C(F)(F)F)cc32)CC1	9.8
CNCCCC1c2ccccc2C=Cc2ccccc21	18.7

Series 2
Compound: C[C@H](c1ccc(F)cc1)N(Cc1cccc(C(=O)O)c1)C(=O)c1cnc2ccccc2c1
Method: competition with immobilised ligand
Tested at: 1 µM
target	assay	remaining binding
EPHA3 (Homo sapiens, UniProt P29320)	cell-free assay	85%
MAPK7 (Homo sapiens, UniProt Q13164)	cell-free assay	78%
TAOK2 (Homo sapiens, UniProt Q9UL54)	cell-free assay	100%
CDK8 (Homo sapiens, UniProt P49336)	cell-free assay	100%
MAP3K9 (Homo sapiens, UniProt P80192)	cell-free assay	100%
MAP3K13 (Homo sapiens, UniProt O43283)	cell-free assay	75%
Tyrosine-protein kinase ABL1, phosphorylated (ABL1, Homo sapiens, UniProt P00519, E255K)	binding	100%
TLK1 (Homo sapiens, UniProt Q9UKI8)	cell-free assay	97%
MAP3K10 (Homo sapiens, UniProt Q02779)	cell-free assay	100%
MAST1 (Homo sapiens, UniProt Q9Y2H9)	cell-free assay	100%
IRAK4 (Homo sapiens, UniProt Q9NWZ3)	cell-free assay	95%
Ribosomal protein S6 kinase alpha-5, N-terminal kinase domain (RPS6KA5, Homo sapiens, UniProt O75582)	cell-free assay	98%
MAPK13 (Homo sapiens, UniProt O15264)	cell-free assay	95%
EGFR (Homo sapiens, UniProt P00533)	cell-free assay	100%
PRKD2 (Homo sapiens, UniProt Q9BZL6)	cell-free assay	100%
STK33 (Homo sapiens, UniProt Q9BYT3)	cell-free assay	100%
MST1R (Homo sapiens, UniProt Q04912)	cell-free assay	100%
Tyrosine-protein kinase JAK1, JH1 (JAK1, Homo sapiens, UniProt P23458)	cell-free assay	100%
FGFR3 (Homo sapiens, UniProt P22607, G697C)	cell-free assay	100%
COQ8B (Homo sapiens, UniProt Q96D53)	cell-free assay	86%

Series 3
Cell line: HaCaT
Tested at: 100 µM
Time: 36 h
SMILES	viability [%]
N[C@@H](Cc1cc(I)c(Oc2ccc(O)c(I)c2)c(I)c1)C(=O)O	67.4
NC(=O)NS(=O)(=O)c1ccc(N)cc1	90.3
Cc1ccc(C(=O)c2ccc(CC(=O)O)n2C)cc1	79.4
Brc1c(NC2=NCCN2)ccc2nccnc12	67.2
CCCCCCCCCCCCCCCCCCCCCCO	96
C[C@H]1O[C@@H](O[C@H]2CC[C@@]3(C)[C@@H](CC[C@]4(C)[C@@H]3C=C[C@]35OC[C@@]6(CCC(C)(C)C[C@H]63)[C@@H](O)C[C@]54C)[C@]2(C)CO)[C@H](O)[C@@H](O[C@@H]2O[C@H](CO)[C@@H](O)[C@H](O)[C@H]2O)[C@H]1O	6.58

Series 4
SMILES: Cn1cc(/C=C2\C(=O)Nc3ccc(S(N)(=O)=O)cc32)c2ccccc21
Read-out: enzyme activity
Mode: inhibitor
Tested at: 0.5 µM
Relative to: control
target	remaining activity [%]
cGMP-dependent protein kinase 1, isoform beta (PRKG1, Homo sapiens, UniProt Q13976)	87.2
CAMK2D (Homo sapiens, UniProt Q13557)	66.8
NEK2 (Homo sapiens, UniProt P51955)	89.1
STK10 (Homo sapiens, UniProt O94804)	17
DAPK1 (Homo sapiens, UniProt P53355)	98.9
Cyclin-dependent kinase 5, with p25 (CDK5, Homo sapiens, UniProt Q00535)	58
STK39 (Homo sapiens, UniProt Q9UEW8)	79.3
PRKACA (Homo sapiens, UniProt P17612)	104
Protein kinase C beta type, isoform beta-I (PRKCB, Homo sapiens, UniProt P05771)	114
TGFBR2 (Homo sapiens, UniProt P37173)	101
OXSR1 (Homo sapiens, UniProt O95747)	93.7
Tyrosine-protein kinase Lyn, isoform B (LYN, Homo sapiens, UniProt P07948)	75
TGFBR1 (Homo sapiens, UniProt P36897)	97.8
MAP3K3 (Homo sapiens, UniProt Q99759)	80.7
PRKCA (Homo sapiens, UniProt P17252)	123
IKBKB (Homo sapiens, UniProt O14920)	101
CHEK2 (Homo sapiens, UniProt O96017)	1.3
MAPK9 (Homo sapiens, UniProt P45984)	93.8
IKBKE (Homo sapiens, UniProt Q14164)	21.9
CAMKK2 (Homo sapiens, UniProt Q96RR4)	34.4
GRK3 (Homo sapiens, UniProt P35626)	111
